Results of several laboratories.
Each line is one published result; not all experiments were run side by side. ± gives the spread as reported.

| Structure (SMILES) | cell line | test | system | conditions | how to read | measurement | value |
| --- | --- | --- | --- | --- | --- | --- | --- |
| O=S1(=O)OC(c2ccc(O)cc2)(c2ccc(O)cc2)c2ccccc21 | IPEC-J2 monolayer, 14 d culture | – | HBSS | 20 mg/L, 120 min, leakage marker | – | Papp (apical to basolateral) | 0.863 ×10⁻⁶ cm/s |
| c1cc2cc(CNCC3(N4CCCC4)COC3)ccc2[nH]1 | HEK | – | – | 30 µM, 48 h, 10% FBS | reference: DMSO | viability | 98.4% |
| CC1(F)CN(C(=O)Cn2c(=O)c(C(=O)NCc3ccc(Cl)cc3)cc3nc(N4CCNC4=O)cnc32)C1 | Vero cells | cell viability, CCK-8 | – | 5 days | – | CC50 | > 40 µM |
| CC(=O)NCc1cc2c(cc1F)C(=O)N(C1CCC(=O)NC1=O)C2 (centres unmarked) | Hep3B | CellTiter-Glo | – | concentration not given, 72 h | – | minimum viability | 95.4 ± 2.35% |
| N=C(N)NCCCCC(=O)N[C@@H](CCC(N)=O)C(=O)N[C@@H](Cc1ccccc1)C(=O)N[C@@H](CCCNC(=N)N)C(=O)c1nc2ccccc2s1 | Vero E6 | CellTiter-Glo | – | 10 µM, 24 h | reference: DMSO | cytotoxicity | not toxic |
| O=C(CCc1cc(C(=O)c2ccc(OC3CCCC3)cc2O)ccc1OCc1ccc2c(O)noc2c1)NCCOCCOCCOCCOCCOCCOCCNc1cccc2c1C(=O)N(C1CCC(=O)NC1=O)C2=O (centres unmarked) | TIGK gingival epithelial cells | cell proliferation, CCK-8 | – | 48 h | – | TD50 | 1090 µM |
| CO[C@H]1/C=C/O[C@@]2(C)Oc3c(C)c(O)c4c(O)c(c(/C=N/N5CCN(C)CC5)c(O)c4c3C2=O)NC(=O)/C(C)=C\C=C\[C@H](C)[C@H](O)[C@@H](C)[C@@H](O)[C@@H](C)[C@H](OC(C)=O)[C@@H]1C | pooled human hepatocyte co-culture | mRNA induction, measured: CYP2C8 mRNA | – | 48 h | – | EC50 | 64.2 nM |
| Cc1cc(NC(=O)Nc2ccc3c(c2)OC(F)(F)O3)cc(C(F)(F)F)n1 | primary mouse macrophages | cytotoxicity | – | – | – | IC50 | 5.9 to 11 µM |
| NCc1cc2c(cc1F)C(=O)N(C1CCC(=O)NC1=O)C2 (centres unmarked) | Hep3B | CellTiter-Glo | – | concentration not given, 72 h | – | minimum viability | 30.2 ± 7.95% |
| C#CCNS(=O)(=O)c1ccc(CCN(Cc2cc(Cl)ccc2OCCC)C(=O)c2ccc(B3OC(C)(C)C(C)(C)O3)cc2)cc1 | J774.A1 | MTT | – | 10 µM, 4 h | – | reduction of viability | 12% |
| c1cc2c(cc1CNCC1(N3CCCC3)COC1)OCCO2 | HEK | – | – | 30 µM, 48 h, 10% FBS | reference: DMSO | viability | 98.5% |
| Clc1cccc(COc2ccccc2CNCc2ccccc2)c1 | J774.A1 | – | – | – | – | cytotoxic concentration | > 12.5 µM |
| CC[C@]1(C)C[C@@H](OC(=O)CSc2nnc(N)[nH]2)[C@]2(C)[C@H](C)CC[C@]3(CCC(=O)[C@H]32)[C@@H](C)[C@@H]1O | pooled human hepatocyte co-culture | mRNA induction, measured: CYP2B6 mRNA | – | 48 h | reference: vehicle | Emax | 9.42 fold |
| CC1(C)CCC(c2ccc(Cl)cc2)=C(CN2CCN(c3ccc(C(=O)NS(=O)(=O)c4ccc(N[C@H](CCN5CCOCC5)CSc5ccccc5)c(S(=O)(=O)C(F)(F)F)c4)cc3)CC2)C1 | Caco-2 C2BBe1 monolayers | pulse-chase lymph lipoprotein secretion | medium | 50 % of saturated solubility, 2 h, chylomicron peak interval, oleic acid/2-monoolein | – | fraction of dose absorbed | 1.76 ± 1.04% |
| COC[C@@H](CC(C)C)NC(=O)c1ccc(C)c(C)c1 | primary human lymphocytes | – | – | 322 µg/mL, 4 (unit not given), with S9 | – | mean mitotic index | 5.6 |
| FC(F)(F)CN1CC(n2cc(Oc3ccn4nc(Cl)cc4n3)cn2)C1 | Hep cells | cytotoxicity | – | – | – | IC50 | > 512 µM |
| c1csc(CNc2cc[nH]n2)c1 | human peripheral blood lymphocytes (female) | – | – | 1850 µg/mL, 4 h, repeat, together with: without S9 | – | cells with numerical aberrations | 1% |
| N=C(N)NCCC[C@H](NC(=O)[C@H](Cc1ccccc1)NC(=O)CCCC(N)=O)C(=O)c1nc2ccccc2s1 | Vero E6 | CellTiter-Glo | – | 10 µM, 24 h | reference: DMSO | cytotoxicity | not toxic |
| CC(=O)OC[C@H]1O[C@@H]([Se]Cc2ccc3ccccc3n2)[C@H](OC(C)=O)[C@@H](OC(C)=O)[C@@H]1OC(C)=O | THP-1 macrophages (PMA-differentiated) | WST-1 | – | 25 µM, 24 h | – | viability | 132 ± 4.4% |

| Structure (SMILES) | cell line | test | system | conditions | how to read | measurement | value |
| --- | --- | --- | --- | --- | --- | --- | --- |
| CC(C)(c1ccc(O)cc1)c1ccc(O)cc1 | HepG2 spheroids, dissociated | annexin V-FITC/PI flow cytometry | – | 0.10 µM, 96 h | – | viable cells | 46.7 ± 11.3% |
| Cc1cc(C)c(CNC(=O)c2cc(Cl)c3c(c2C)O[C@@](C)([C@H]2CC[C@H](N(C)C)CC2)O3)c(=O)[nH]1 | Caco-2 | – | – | 100 µM | – | Papp A to B | 0.889 ± 0.048 ×10⁻⁶ cm/s |
| C#CCS(=O)(=O)c1ccc(CCN(Cc2cc(Cl)ccc2OCCC)C(=O)Cc2ccsc2)cc1 | J774.A1 | MTT | – | 10 µM, 4 h | – | reduction of viability | 19% |
| Cc1c2c(nn1C)CSCc1cc(n(C)n1)CSc1cc(c3ccccc3c1)OCCCc1c(C(=O)O)n(C)c3c-2c(Cl)ccc13 | LX-2 | CCK-8 | – | 24 h | – | lowest cytotoxic concentration | > 100 µM |
| O=C(c1cc(Cc2n[nH]c(=O)c3ccccc23)ccc1F)N1CCN(C(=O)C2CC2)CC1 | human PBMC | LC-MS/MS | – | 10 µM, 1 h, 37 °C, together with: 10 µM carboplatin 24 h pretreatment | reference: water pretreatment | intracellular concentration increase | > 30% |
| CCCCCC(O)C=CC=O (centres unmarked) | rat primary cortical neurons | MTT | – | 100 µM, 20 h | – | cell death | ~70% |
| COc1cccc(-c2n[nH]c(SCc3ccccn3)n2)c1OC | CHO-WBL | – | – | 16 µg/mL, 19 h, without S9 | – | micronuclei per binucleated cell | 0.014 |
| COc1cc2ncnc(Nc3ccc(Oc4ccccc4)c(C)c3C)c2cc1OC.Cl | LoVo (KRAS G13D) | resazurin | – | 0.1 µM, 72 h, together with: trametinib 0 nM | reference: DMSO | viability fraction | 0.979 |
| CCC[C@H](CC)Oc1ccc(C(=O)OC)cc1NC(=O)c1nnn(-c2cc(OC)c(OCCCCCCOCCOCC(=O)N[C@H](C(=O)N3C[C@H](O)C[C@H]3C(=O)NCc3ccc(-c4scnc4C)cc3)C(C)(C)C)cc2OC)c1C | SNU-C4 cells | RT-qPCR, measured: PXR | – | 10 µM, 24 h | – | mRNA level | no effect |
| O=C(O)c1cccc(Cc2ccc3cc[nH]c3c2)c1 | HL2/3 and TZM-bl co-culture | – | – | 6 h, 0% serum | – | CC50 | > 500 µM |
| Cc1cn([C@H]2C[C@H](N=[N+]=[N-])[C@@H](CO)O2)c(=O)[nH]c1=O | human PBMC | cytotoxicity, XTT | – | – | – | TC50 | > 0.5 µM |
| FC1CCN(C2(CNCc3ccc(-c4ccccc4Cl)o3)COC2)C1 (centres unmarked) | HEK | – | – | 30 µM, 48 h, 10% FBS | reference: DMSO | viability | 77.3% |
| CO[C@H]1/C=C/O[C@@]2(C)Oc3c(C)c(O)c4c(c3C2=O)C2=NC3(CCN(CC(C)C)CC3)NC2=C(NC(=O)/C(C)=C\C=C\[C@H](C)[C@H](O)[C@@H](C)[C@@H](O)[C@@H](C)[C@H](OC(C)=O)[C@@H]1C)C4=O | THP-1 derived macrophages | – | – | 30 min | – | intracellular/extracellular ratio | 3.6 |
| Fc1ccc(COc2ccccc2CNCc2ccccc2)cc1 | J774.A1 | – | – | – | – | cytotoxic concentration | > 12.5 µM |
| CCc1nc(N)nc(N)c1-c1ccc(Cl)cc1 | uninfected human foreskin fibroblasts | MTT | – | 50 µM, 48 h | – | viability | 108% |
| C[S+](C)[O-] | WA09 hESC-derived forebrain rosette tissues | – | – | concentration not given | – | rosette emergence inhibitory level | > 0.1 % v/v |
| Clc1ccc(COc2ccccc2CNCc2cccnc2)cc1 | J774.A1 | – | – | – | – | cytotoxic concentration | > 12.5 µM |
| Cc1ncc([N+](=O)[O-])n1CCOC(=O)c1ccccc1 | pigeon embryo fibroblast (PEF) | – | – | – | – | CC50 | 225 µM |
| CO[C@H]1/C=C/O[C@@]2(C)Oc3c(C)c(O)c4c(c3C2=O)C2=NC3(CCN(CC(C)C)CC3)NC2=C(NC(=O)/C(C)=C/C=C/[C@H](C)[C@H](O)[C@@H](C)[C@@H](O)[C@@H](C)[C@H](OC(=O)Nc2c(C)nc3ccccn23)[C@@H]1C)C4=O | THP-1 derived macrophages | cellular uptake | – | – | – | intracellular to extracellular ratio | 17 |

Excerpt of the above:
| Structure (SMILES) | cell line | test | system | conditions | how to read | measurement | value |
| --- | --- | --- | --- | --- | --- | --- | --- |
| C[S+](C)[O-] | WA09 hESC-derived forebrain rosette tissues | – | – | concentration not given | – | rosette emergence inhibitory level | > 0.1 % v/v |
| O=C(c1cc(Cc2n[nH]c(=O)c3ccccc23)ccc1F)N1CCN(C(=O)C2CC2)CC1 | human PBMC | LC-MS/MS | – | 10 µM, 1 h, 37 °C, together with: 10 µM carboplatin 24 h pretreatment | reference: water pretreatment | intracellular concentration increase | > 30% |
| Cc1cc(C)c(CNC(=O)c2cc(Cl)c3c(c2C)O[C@@](C)([C@H]2CC[C@H](N(C)C)CC2)O3)c(=O)[nH]1 | Caco-2 | – | – | 100 µM | – | Papp A to B | 0.889 ± 0.048 ×10⁻⁶ cm/s |
| c1cc2cc(CNCC3(N4CCCC4)COC3)ccc2[nH]1 | HEK | – | – | 30 µM, 48 h, 10% FBS | reference: DMSO | viability | 98.4% |
| CC(=O)OC[C@H]1O[C@@H]([Se]Cc2ccc3ccccc3n2)[C@H](OC(C)=O)[C@@H](OC(C)=O)[C@@H]1OC(C)=O | THP-1 macrophages (PMA-differentiated) | WST-1 | – | 25 µM, 24 h | – | viability | 132 ± 4.4% |
